Measurements collected from several papers.
Positions of bridges follow the written chain, without caps; N, C: chain ends. No end group written: not given here.
RGS4 residues 19-end: RGS4 residues 19-end 19-205, Alexa Fluor 568 label (Rattus norvegicus, UniProt P49799)
UniProt P49799, sequence (whole entry, unmodified, looked up): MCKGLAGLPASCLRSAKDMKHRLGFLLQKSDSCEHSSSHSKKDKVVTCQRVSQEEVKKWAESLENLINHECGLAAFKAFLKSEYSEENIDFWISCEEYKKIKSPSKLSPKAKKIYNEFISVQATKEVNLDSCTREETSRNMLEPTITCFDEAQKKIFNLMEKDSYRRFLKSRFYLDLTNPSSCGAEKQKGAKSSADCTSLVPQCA
B1: pum 548-776 (Drosophila melanogaster, UniProt P25822-1); sequence looked up; chain ESQPRPPNLLFPPLPFNHMLMDHGQGMGGGLGGVVGSGNGVGGGSGGGGAGGAYAAHQQMAAQMSQLQPPMMNGVGGGMPMAAQSPMLNHQAAGPNHMESPGNLLQQQNFDVQQLFRSQNPGLAAVATNAAAAAAAAAAATSAASAAAAVGAPPVPNGSLQQSQQQQQQQQQQQQQQQMHMAAASQQFLAAQQQAQNAAYAAQQATSYVINPGQEAAPYMGMIAAAQMP
B2: SEC72 (Saccharomyces cerevisiae, UniProt P39742); lysines PEGylated; sequence looked up; chain MVTLEYNANSKLITASDAVVALSTETNIDQINVLTTSLIGETNPNFTPQPNEALSKMIKGLFESGMKNLQQKKLNEALKNVSLAIEMAQRKRAPWEAFAIQLPELHFMLRSKIDLCLILGKHLEALQDLDFLLGTGLIQPDVFVRKADCLLKLRQWEEARATCERGLALAPEDMKLRALLIETARNLAEYNGE
B3: VPS21 GTPγS-bound (Saccharomyces cerevisiae, UniProt P36017); chain MNTSVTSIKLVLLGEAAVGKSSIVLRFVSNDFAENKEPTIGAAFLTQRVTINEHTVKFEIWDTAGQERFASLAPMYYRNAQAALVVYDVTKPQSFIKARHWVKELHEQASKDIIIALVGNKIDMLQEGGERKVAREEGEKLAEEKGLLFFETSAKTGENVNDVFLGIGEKIPLKTAEEQNSASNERESNNQRVDLNAANDGTSANSACSC
B4: glnB (Escherichia coli, UniProt P0A9Z1); sequence looked up; chain MKKIDAIIKPFKLDDVREALAEVGITGMTVTEVKGFGRQKGHTELYRGAEYMVDFLPKVKIEIVVPDDIVDTCVDTIIRTAQTGKIGDGKIFVFDVARVIRIRTGEEDDAAI
B5: apcB (Synechocystis sp. PCC 6803, UniProt Q01952); bilin at Cys81; sequence looked up; chain MQDAITAVINSADVQGKYLDGAAMDKLKSYFASGELRVRAASVISANAATIVKEAVAKSLLYSDVTRPGGNMYTTRRYAACIRDLDYYLRYATYAMLAGDASILDERVLNGLKETYNSLGVPISSTVQAIQAIKEVTASLVGADAGKEMGVYLDYICSGLS
B6: ftsZ (Bacillus subtilis, UniProt P17865); sequence looked up; chain MLEFETNIDGLASIKVIGVGGGGNNAVNRMIENEVQGVEYIAVNTDAQALNLSKAEVKMQIGAKLTRGLGAGANPEVGKKAAEESKEQIEEALKGADMVFVTAGMGGGTGTGAAPVIAQIAKDLGALTVGVVTRPFTFEGRKRQLQAAGGISAMKEAVDTLIVIPNDRILEIVDKNTPMLEAFREADNVLRQGVQGISDLIATPGLINLDFADVKTIMSNKGSALMGIGIATGENRAAEAAKKAISSPLLEAAIDGAQGVLMNITGGTNLSLYEVQEAADIVASASDQDVNMIFGSVINENLKDEIVVTVIATGFIEQEKDVTKPQRPSLNQSIKTHNQSVPKREPKREEPQQQNTVSRHTSQPADDTLDIPTFLRNRNKRG
B7: POL30 (Saccharomyces cerevisiae, UniProt P15873); LD655 label on S6 tag; sequence looked up; chain MLEAKFEEASLFKRIIDGFKDCVQLVNFQCKEDGIIAQAVDDSRVLLVSLEIGVEAFQEYRCDHPVTLGMDLTSLSKILRCGNNTDTLTLIADNTPDSIILLFEDTKKDRIAEYSLKLMDIDADFLKIEELQYDSTLSLPSSEFSKIVRDLSQLSDSINIMITKETIKFVADGDIGSGSVIIKPFVDMEHPETSIKLEMDQPVDLTFGAKYLLDIIKGSSLSDRVGIRLSSEAPALFQFDLKSGFLQFFLAPKFNDEE
B8: CSN2 mature (Bos taurus, UniProt P02666); sequence looked up; chain RELEELNVPGEIVESLSSSEESITRINKKIEKFQSEEQQQTEDELQDKIHPFAQTQSLVYPFPGPIPNSLPQNIPPLTQTPVVVPPFLQPEVMGVSKVKEAMAPKHKEMPFPKYPVEPFTESQSLTLTDVENLHLPLPLLQSWMHQPHQPLPPTVMFPPQSVLSLSQSKVLPVPQKAVPYPQRDMPIQAFLLYQEPVLGPVRGPFPIIV
B9: rps18 (Spinacia oleracea, UniProt Q9M3K7); sequence looked up; chain MDKSKRPFIKSKRSFRRRLPPIQSGDRIDYRNMSLISRFISEQGKILSRRVNRLTLKQQRLITSAIKQARILSLLPFLNNEKQFERTESTTRTANFRTKNK
B10: NTM ectodomain 36-311 (Homo sapiens, UniProt Q9P121); chain ATFPKAMDNVTVRQGESATLRCTIDNRVTRVAWLNRSTILYAGNDKWCLDPRVVLLSNTQTQYSIEIQNVDVYDEGPYTCSVQTDNHPKTSRVHLIVQVSPKIVEISSDISINEGNNISLTCIATGRPEPTVTWRHISPKAVGFVSEDEYLEIQGITREQSGDYECSASNDVAAPVVRRVKVTVNYPPYISEAKGTGVPVGQKGTLQCEASAVPSAEFQWYKDDKRLIEGKKGVKVENRPFLSKLIFFNVSEHDYGNYTCVASNKLGHTNASIMLF
UniProt P20248, sequence (whole entry, looked up): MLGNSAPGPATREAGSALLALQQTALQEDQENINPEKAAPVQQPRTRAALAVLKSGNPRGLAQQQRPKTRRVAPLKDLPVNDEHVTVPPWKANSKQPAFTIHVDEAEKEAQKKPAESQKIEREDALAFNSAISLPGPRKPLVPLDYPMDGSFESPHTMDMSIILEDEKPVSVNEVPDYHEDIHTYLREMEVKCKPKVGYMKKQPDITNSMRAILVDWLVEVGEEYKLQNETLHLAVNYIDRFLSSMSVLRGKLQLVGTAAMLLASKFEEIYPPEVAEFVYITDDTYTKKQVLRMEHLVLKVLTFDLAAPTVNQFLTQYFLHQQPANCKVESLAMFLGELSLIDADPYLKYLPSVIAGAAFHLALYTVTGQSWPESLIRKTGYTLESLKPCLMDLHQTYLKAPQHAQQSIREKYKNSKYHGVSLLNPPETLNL
UniProt Q55544, sequence (whole entry, looked up): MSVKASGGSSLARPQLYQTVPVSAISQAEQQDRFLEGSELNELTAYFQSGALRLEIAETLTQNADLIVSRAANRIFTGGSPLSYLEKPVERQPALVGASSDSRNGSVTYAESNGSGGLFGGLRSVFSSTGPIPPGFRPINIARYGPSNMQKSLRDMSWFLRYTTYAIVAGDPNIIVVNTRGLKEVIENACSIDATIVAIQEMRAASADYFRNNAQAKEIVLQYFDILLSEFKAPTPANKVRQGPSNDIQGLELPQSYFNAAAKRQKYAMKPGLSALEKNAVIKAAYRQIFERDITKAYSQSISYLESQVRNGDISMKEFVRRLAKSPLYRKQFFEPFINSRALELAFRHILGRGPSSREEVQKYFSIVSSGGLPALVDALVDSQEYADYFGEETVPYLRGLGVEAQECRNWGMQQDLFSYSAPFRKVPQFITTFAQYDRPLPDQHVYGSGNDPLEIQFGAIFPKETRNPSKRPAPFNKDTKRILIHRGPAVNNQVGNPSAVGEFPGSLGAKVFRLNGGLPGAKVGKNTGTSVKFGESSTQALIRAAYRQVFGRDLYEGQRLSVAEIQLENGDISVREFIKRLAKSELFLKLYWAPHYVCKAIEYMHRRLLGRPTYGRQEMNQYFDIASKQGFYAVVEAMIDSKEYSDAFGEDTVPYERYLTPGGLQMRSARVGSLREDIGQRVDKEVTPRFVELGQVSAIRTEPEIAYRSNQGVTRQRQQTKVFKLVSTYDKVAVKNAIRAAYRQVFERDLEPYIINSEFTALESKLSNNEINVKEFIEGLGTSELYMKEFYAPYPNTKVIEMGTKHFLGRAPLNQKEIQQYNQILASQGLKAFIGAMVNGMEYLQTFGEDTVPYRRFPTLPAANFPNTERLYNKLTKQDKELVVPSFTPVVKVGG
UniProt O60656, sequence (whole entry, looked up): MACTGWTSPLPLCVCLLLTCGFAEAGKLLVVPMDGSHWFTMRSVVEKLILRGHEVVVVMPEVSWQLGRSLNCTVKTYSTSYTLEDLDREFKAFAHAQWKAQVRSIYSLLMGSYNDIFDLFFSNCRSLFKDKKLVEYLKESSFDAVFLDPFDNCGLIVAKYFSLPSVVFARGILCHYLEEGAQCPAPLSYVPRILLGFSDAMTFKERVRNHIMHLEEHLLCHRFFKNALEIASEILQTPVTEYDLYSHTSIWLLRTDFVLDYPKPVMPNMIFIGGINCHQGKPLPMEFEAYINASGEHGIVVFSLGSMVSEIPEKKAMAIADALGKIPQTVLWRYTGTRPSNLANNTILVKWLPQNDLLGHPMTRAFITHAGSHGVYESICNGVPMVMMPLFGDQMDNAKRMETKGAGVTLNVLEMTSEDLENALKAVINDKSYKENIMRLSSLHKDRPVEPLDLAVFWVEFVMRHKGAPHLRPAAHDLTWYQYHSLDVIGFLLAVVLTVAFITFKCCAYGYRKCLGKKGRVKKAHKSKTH
UniProt P14906, sequence (whole entry, looked up): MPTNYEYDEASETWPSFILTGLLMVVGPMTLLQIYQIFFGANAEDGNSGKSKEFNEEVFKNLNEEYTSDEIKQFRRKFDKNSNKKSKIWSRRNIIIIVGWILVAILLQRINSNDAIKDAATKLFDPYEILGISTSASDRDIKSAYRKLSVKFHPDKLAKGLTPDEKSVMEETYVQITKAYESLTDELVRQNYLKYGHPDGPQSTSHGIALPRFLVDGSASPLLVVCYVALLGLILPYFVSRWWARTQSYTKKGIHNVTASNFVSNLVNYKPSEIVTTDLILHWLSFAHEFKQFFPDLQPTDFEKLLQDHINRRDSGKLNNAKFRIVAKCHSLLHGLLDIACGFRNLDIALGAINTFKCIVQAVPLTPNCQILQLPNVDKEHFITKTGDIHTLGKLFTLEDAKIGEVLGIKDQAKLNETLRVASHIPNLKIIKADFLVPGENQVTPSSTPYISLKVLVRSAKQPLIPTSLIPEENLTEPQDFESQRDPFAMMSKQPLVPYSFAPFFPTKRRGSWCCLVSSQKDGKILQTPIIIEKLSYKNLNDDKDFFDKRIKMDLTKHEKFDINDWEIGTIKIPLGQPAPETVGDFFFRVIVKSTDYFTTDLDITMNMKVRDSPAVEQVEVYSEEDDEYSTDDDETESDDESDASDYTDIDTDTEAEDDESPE
UniProt O34894, sequence (whole entry, looked up): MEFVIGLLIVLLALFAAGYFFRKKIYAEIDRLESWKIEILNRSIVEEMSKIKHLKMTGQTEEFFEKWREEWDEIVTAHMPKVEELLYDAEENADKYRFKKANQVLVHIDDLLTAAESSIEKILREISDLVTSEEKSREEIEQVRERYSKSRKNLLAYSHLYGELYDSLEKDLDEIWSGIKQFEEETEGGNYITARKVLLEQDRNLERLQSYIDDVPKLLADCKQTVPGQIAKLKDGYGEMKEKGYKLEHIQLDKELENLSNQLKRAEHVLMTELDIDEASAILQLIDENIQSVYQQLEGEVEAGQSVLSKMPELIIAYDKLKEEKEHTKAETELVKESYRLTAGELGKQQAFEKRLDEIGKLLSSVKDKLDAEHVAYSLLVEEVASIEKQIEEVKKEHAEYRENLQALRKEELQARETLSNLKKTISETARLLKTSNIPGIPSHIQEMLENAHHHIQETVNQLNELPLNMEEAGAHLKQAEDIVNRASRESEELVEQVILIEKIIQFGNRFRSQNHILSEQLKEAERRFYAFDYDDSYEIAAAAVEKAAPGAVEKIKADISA
UniProt P49798, sequence (whole entry, unmodified, looked up): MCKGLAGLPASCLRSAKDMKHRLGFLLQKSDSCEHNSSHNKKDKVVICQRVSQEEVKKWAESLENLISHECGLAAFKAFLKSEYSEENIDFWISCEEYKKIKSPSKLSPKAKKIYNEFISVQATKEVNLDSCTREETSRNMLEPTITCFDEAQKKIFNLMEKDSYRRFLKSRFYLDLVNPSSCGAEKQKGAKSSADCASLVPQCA
UniProt P82412, sequence (whole entry, looked up): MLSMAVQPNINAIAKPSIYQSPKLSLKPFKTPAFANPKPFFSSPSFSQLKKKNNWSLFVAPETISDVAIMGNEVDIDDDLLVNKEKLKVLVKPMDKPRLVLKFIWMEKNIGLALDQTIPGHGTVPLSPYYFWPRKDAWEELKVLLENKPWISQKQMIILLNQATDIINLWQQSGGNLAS
UniProt P73354, sequence (whole entry, unmodified, looked up): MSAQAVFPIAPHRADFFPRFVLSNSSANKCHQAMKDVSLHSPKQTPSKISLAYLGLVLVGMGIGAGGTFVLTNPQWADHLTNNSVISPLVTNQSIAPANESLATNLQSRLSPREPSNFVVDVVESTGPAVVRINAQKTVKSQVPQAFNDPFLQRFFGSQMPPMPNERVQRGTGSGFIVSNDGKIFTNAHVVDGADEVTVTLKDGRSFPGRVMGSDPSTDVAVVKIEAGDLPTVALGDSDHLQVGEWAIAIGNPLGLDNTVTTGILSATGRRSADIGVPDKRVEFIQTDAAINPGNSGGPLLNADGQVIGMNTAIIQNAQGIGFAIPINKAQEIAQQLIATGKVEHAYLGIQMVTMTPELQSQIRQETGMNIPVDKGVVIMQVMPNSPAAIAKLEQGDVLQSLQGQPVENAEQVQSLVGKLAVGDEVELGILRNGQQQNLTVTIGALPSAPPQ
UniProt Q57818, sequence (whole entry, looked up): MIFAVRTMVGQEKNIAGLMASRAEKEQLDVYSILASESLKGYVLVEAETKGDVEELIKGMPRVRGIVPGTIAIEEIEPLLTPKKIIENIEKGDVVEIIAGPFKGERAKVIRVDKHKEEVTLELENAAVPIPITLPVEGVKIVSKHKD
UniProt Q7Z3B1, sequence (whole entry, looked up): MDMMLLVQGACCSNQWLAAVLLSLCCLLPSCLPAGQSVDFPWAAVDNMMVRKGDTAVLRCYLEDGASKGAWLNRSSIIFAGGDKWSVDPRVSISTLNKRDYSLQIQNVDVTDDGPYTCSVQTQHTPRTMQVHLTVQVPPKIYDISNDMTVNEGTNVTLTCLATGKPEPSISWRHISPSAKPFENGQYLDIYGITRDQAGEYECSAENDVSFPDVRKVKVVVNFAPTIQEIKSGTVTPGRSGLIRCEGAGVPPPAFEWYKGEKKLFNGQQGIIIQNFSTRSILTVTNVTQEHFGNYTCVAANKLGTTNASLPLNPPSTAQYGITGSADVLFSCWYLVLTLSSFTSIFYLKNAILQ
UniProt P40003, sequence (whole entry, looked up): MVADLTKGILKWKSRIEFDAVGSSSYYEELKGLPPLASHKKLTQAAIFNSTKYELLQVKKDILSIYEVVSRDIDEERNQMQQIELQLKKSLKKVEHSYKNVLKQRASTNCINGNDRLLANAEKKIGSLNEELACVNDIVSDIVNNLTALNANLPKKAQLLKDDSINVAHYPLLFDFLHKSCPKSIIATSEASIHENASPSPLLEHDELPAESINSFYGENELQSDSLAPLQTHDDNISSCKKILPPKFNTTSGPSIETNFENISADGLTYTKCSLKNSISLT

psbQ (Synechocystis sp. PCC 6803, UniProt P73048)
binding (psbC CP43 (Synechocystis sp. PCC 6803); cryo-EM): binds

B1 (pum 548-776)
binding (CNOT1/CNOT2/CNOT3/CNOT10/CNOT11/CNOT7/CNOT6/CNOT9 CCR4-NOT complex 1-2376 (Homo sapiens); pull-down): binds

LIYWAST
inhibition (peptide, human polyclonal IgM RF STR; concentration not given, 5 µg/mL mAb II-481 coated, together with: RF at 50% max binding concentration): 8%

UGT1A9 (Homo sapiens, UniProt O60656)
Vmax/Km (COc1cc2c(=O)c(-c3ccccc3)coc2cc1O; steady-state kinetics; pH 7.4, 37 °C): 371 µL/min/mg

B2 (SEC72)
binding (SEC63, PEGylated surface lysines (Saccharomyces cerevisiae, UniProt P14906); cryo-EM): binds

H-KHCYGFCK-NH2 (designed peptide; disulfide 3-7; SMILES NCCCC[C@H](NC(=O)[C@@H]1CSSC[C@H](NC(=O)[C@H](Cc2c[nH]cn2)NC(=O)[C@@H](N)CCCCN)C(=O)N[C@@H](Cc2ccc(O)cc2)C(=O)NCC(=O)N[C@@H](Cc2ccccc2)C(=O)N1)C(N)=O; free N-terminus/C-amide/cyclic disulfide Cys3-Cys7)
binding (RGS4 residues 52-end 52-205, Alexa Fluor 532 label (Homo sapiens, UniProt P49798); flow cytometry; peptide; room temperature): binds

B3 (VPS21 GTPγS-bound)
binding (BLOC-1 complex (UniProt P40003); pull-down; together with: GTPγS): binds

B4 (glnB)
binding (glnL (Escherichia coli, UniProt P0AFB5); native gel, EMSA; pH 7.5, 4 °C, without ATP, together with: ADP 0.5 mM, α-ketoglutarate 1 mM): binds

B5 (apcB)
binding (apcE, phycocyanobilin (Synechocystis sp. PCC 6803, UniProt Q55544); cross-linking): binds

B6 (ftsZ)
binding (ezrA cytoplasmic domain 22-562 (Bacillus subtilis, UniProt O34894); cross-linking): binds

MRACLKCKYLTNDEICPICHSPTSENWIGLLIVINPEKSEIAKKAGIDIKGKYALSVKE (spt4 1-59 (Methanocaldococcus jannaschii, UniProt Q57839))
binding (Spt5 NGN domain 1-82 (Methanocaldococcus jannaschii, UniProt Q57818); crystal structure): binds

B7 (POL30)
binding (POL3/POL31/POL32 Pol delta heterotrimer (Saccharomyces cerevisiae); single-molecule colocalization; together with: ATP and dNTPs): binds

CDKN1A fragment (Homo sapiens) (sequence not shown)
binding (CCNA2 173-432 (Homo sapiens, UniProt P20248); NMR spectroscopy): binds

B8 (CSN2 mature)
binding (htrA residues 94-end 94-452 S296A (Synechocystis sp. PCC 6803, UniProt P73354); SEC): binds

KVCMGGCT-NH2 (designed peptide; disulfide 3-7; also: on OBOC bead: half N-acetylated, half free N-terminus; half N-acetyl, half free N-terminus/C-amide/cyclic disulfide Cys3-Cys7)
binding (RGS4 residues 19-end; fluorescence imaging of beads; peptide): binds

B9 (rps18)
binding (PSRP3 mature (Spinacia oleracea, UniProt P82412); cryo-EM structure; native chloroplast 70S ribosome): binds

GTCFGTCW-NH2 (designed peptide; disulfide 3-7; also: on OBOC bead: half N-acetylated, half free N-terminus; half N-acetyl, half free N-terminus/C-amide/cyclic disulfide Cys3-Cys7)
binding (RGS4 residues 19-end; fluorescence imaging of beads; peptide): binds

LHNHYT
inhibition (peptide, human polyclonal IgM RF WEAK; concentration not given, 5 µg/mL mAb II-481 coated, together with: RF at 50% max binding concentration): 0%

YWCKGLCK (designed peptide; half N-acetyl, half free N-terminus/C-amide/cyclic disulfide Cys3-Cys7)
binding (RGS4 residues 19-end; fluorescence imaging of beads; peptide): binds

B10 (NTM ectodomain 36-311)
binding (NEGR1 ectodomain 38-313 (Homo sapiens, UniProt Q7Z3B1); SPR): binds
